Experimental data pooled from the literature.
Numbered parts are unrelated; each lists some results of a single study.

Set 1 — method: protein binding microarray; form: double-stranded DNA, one strand shown; sample: in vitro; concentration: not given; relative to: not given; reading: higher = stronger binding
Target: Histone acetyltransferase KAT6A, winged helix 2, GST fusion (KAT6A, Homo sapiens, UniProt Q92794, residues 85-181)
Notes: 8-mer, flanks averaged, mean of 2 arrays, mostly near background
Construct (chain): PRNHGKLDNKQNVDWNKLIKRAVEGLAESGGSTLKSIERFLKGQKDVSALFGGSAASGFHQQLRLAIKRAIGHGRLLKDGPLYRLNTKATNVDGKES
Oligonucleotide	E-score
ATGCCTGC	-0.0599
CTTCGCGA	0.183
ACGCCAAC	0.0402

Set 2 — method: universal PBM; form: double-stranded DNA, one strand shown; sample: in vitro; concentration: not given; reading: higher = stronger binding
Target: Sal-like protein 4, full length isoform B (SALL4, Homo sapiens, UniProt Q9UJQ4-2, residues 1-616)
Notes: 8-mer, flanks averaged, mean of replicates
Residues (chain): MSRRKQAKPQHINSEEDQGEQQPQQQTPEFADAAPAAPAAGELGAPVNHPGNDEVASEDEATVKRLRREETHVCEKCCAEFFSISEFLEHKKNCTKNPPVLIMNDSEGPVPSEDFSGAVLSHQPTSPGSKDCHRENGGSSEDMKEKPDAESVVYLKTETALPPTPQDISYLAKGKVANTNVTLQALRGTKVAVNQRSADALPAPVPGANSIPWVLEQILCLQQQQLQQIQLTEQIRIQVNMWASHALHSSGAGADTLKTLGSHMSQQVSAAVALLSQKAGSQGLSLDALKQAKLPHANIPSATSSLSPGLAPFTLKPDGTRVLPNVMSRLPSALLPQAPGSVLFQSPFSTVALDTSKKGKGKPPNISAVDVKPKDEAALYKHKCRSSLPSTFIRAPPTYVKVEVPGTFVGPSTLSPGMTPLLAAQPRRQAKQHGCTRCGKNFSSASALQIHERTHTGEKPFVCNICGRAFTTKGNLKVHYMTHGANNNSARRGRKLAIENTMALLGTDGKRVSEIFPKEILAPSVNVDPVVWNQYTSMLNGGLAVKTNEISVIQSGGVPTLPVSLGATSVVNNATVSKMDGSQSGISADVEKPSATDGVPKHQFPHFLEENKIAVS
Oligonucleotide	E-score
GAATATGA	0.331
AGACAGCA	-0.0222
AGCACGTG	-0.00563
AAAGCCGG	-0.128

Set 3 — method: aptamer microarray, sandwich; form: DNA with 2'F-ANA; sample: in vitro; concentration: 200 nM; with: Cy3 exosite-II aptamer, 400 nM; reading: higher = stronger binding
Target: Prothrombin, mature alpha-thrombin (F2, Homo sapiens, UniProt P00734)
Notes: whole 15-mer aptamer, many near background
Oligonucleotide	mean fluorescence intensity [a.u.]
GGTTGGTGTGGTTGG (2'F-ANA at 1 2 3 4 7 9 10 12)	75.2
GGTTGGTGTGGTTGG (2'F-ANA at 2 5 8 9 10 12 13)	50.6
GGTTGGTGTGGTTGG (2'F-ANA at 2 5 6 7 9 10 12 13 15)	153

Further values, each from its own experiment
Substance	target	test	test system	conditions	how to read	quantity	result
PhoQ, residues 284 288 289 292 302 303 SIHLQL	PhoP, residues 12 14 15 18 19 DLLYY (Escherichia coli, UniProt P23836)	Sort-seq, item: YFP reporter	E. coli	PhoQ-PhoP variant library, with: 10 µM Mg2+	relative to: high Mg2+ state, higher = stronger signaling	fold induction	0.736

A few entries again (set 2):
Oligonucleotide	E-score
AAAGCCGG	-0.128
